Experimental data gathered from unrelated publications.
Lines come from different studies, so protocols differ. ≈ marks a conversion by molar mass, not a printed value. Bridge positions count the residues as written; N and C are the ends. Ends that are not written are not given here. * marks the point of attachment.
Organism: Staphylococcus aureus

CC[C@H](C)[C@H](NC(=O)[C@H](C)NC(=O)[C@@H](NC(=O)[C@H](C)NC(=O)CN)[C@@H](C)O)C(=O)N[C@@H](CCCCN)C(=O)N[C@@H](CCC(N)=O)C(=O)N[C@H](C(=O)N[C@@H](CCCCN)C(=O)N[C@@H](CCCCN)C(=O)N[C@@H](CC(C)C)C(=O)N[C@@H](Cc1ccccc1)C(=O)N[C@@H](CCCCN)C(=O)N[C@@H](CCCCN)C(=O)N[C@@H](CCCCN)C(=O)NCC(=O)NCC(N)=O)C(C)C — MIC50 (broth microdilution; ATCC 25923; 24 h, 37 °C): 78 µM (≈ 140 µg/mL)
CCCCCCOc1c(OC)cc(NC(C)CCCNC(=O)C(N)Cc2ccccc2)c2nc(C(C)(C)C)ccc12 (stereo not shown) — IC50 (microbial growth; ATCC33591 MRSA; drug-resistant strain): 9.71 µg/mL (≈ 17.3 µM)
Myristoyl-SCLPKEEQIGKSTRGRKCRRKK (disulfide 2-18 (inferred)) (N-myristoyl, disulfide; Myristoyl = CCCCCCCCCCCCCC(=O)*) — antibacterial activity (ATCC 8530; MBC, 2 h, pH 7.4, 37 °C, added: LPS Escherichia coli 026:B6, peptide:LPS 1:1 w/w): no inhibition
CC[C@H](C)[C@H](NC(=O)[C@H](CCCCN)NC(=O)[C@H](CCC(=O)O)NC(=O)[C@H](CCCCN)NC(=O)[C@H](CO)NC(=O)[C@H](CCCCN)NC(=O)[C@H](CCCNC(=N)N)NC(=O)[C@H](Cc1ccccc1)NC(=O)[C@H](Cc1ccccc1)NC(=O)[C@H](CC(=O)O)NC(=O)CNC(=O)[C@H](CC(C)C)NC(=O)[C@@H](N)CC(C)C)C(=O)NCC(=O)N[C@@H](CCCCN)C(=O)N[C@@H](CCC(=O)O)C(=O)N[C@@H](Cc1ccccc1)C(=O)N[C@@H](CCCCN)C(=O)N[C@@H](CCCNC(=N)N)C(=O)N[C@H](C(=O)N[C@H](C(=O)N[C@@H](CCC(N)=O)C(=O)N[C@@H](CCCNC(=N)N)C(=O)N[C@H](C(=O)N[C@@H](CCCCN)C(=O)N[C@@H](CC(=O)O)C(=O)N[C@@H](Cc1ccccc1)C(=O)N[C@@H](CC(C)C)C(=O)N[C@@H](CCCNC(=N)N)C(=O)N[C@@H](CC(N)=O)C(=O)N[C@@H](CC(C)C)C(=O)N[C@H](C(=O)N1CCC[C@H]1C(=O)N[C@@H](CCCNC(=N)N)C(=O)N[C@H](C(=O)N[C@@H](CCC(=O)O)C(=O)N[C@@H](CO)C(=O)O)[C@@H](C)O)C(C)C)[C@@H](C)CC)C(C)C)[C@@H](C)CC — MIC ratio (JE2 SAUSA300_1097 pyrF transposon mutant; 12.5% TSB; reference: wild type over mutant): 2 fold
CCCCCOc1c(OC)cc(NC(C)CCCNC(=O)C(N)CCCN)c2nc(C(C)(C)C)ccc12 (stereo not shown) — MBC (MRSA ATCC 33591): > 20 µg/mL
CC[C@H](C)[C@H](NC(=O)[C@H](C)NC(=O)[C@@H](NC(=O)[C@H](C)NC(=O)CNC(C)=O)[C@@H](C)O)C(=O)N[C@@H](CCCCN)C(=O)N[C@@H](CCC(N)=O)C(=O)N[C@H](C(=O)N[C@@H](CCCCN)C(=O)N[C@@H](CCCCN)C(=O)N[C@@H](CC(C)C)C(=O)N[C@@H](Cc1ccccc1)C(=O)N[C@@H](CCCCN)C(=O)N[C@@H](CCCCN)C(=O)N[C@@H](CCCCN)C(=O)NCC(=O)NCC(N)=O)C(C)C — MIC50 (broth microdilution; ATCC 25923; 24 h, 37 °C): 78 µM (≈ 144 µg/mL)
CCCCCOc1c(OC)cc(NC(C)CCCNC(=O)C(N)CC(C)C)c2nc(C(C)(C)C)ccc12 (stereo not shown) — MBC (microbial killing; ATCC33591 MRSA; drug-resistant strain): 20 µg/mL
CC(=O)NC(C)(C)C(=O)N1CCC[C@H]1C(=O)NC(C)(C)C(=O)N[C@@H](C)C(=O)NC(C)(C)C(=O)N[C@@H](C)C(=O)N[C@@H](CCC(N)=O)C(=O)NC(C)(C)C(=O)N[C@H](C(=O)NC(C)(C)C(=O)NCC(=O)N[C@@H](CC(C)C)C(=O)NC(C)(C)C(=O)N1CCC[C@H]1C(=O)N[C@H](C(=O)NC(C)(C)C(=O)NC(C)(C)C(=O)N[C@@H](CCC(=O)O)C(=O)N[C@@H](CCC(N)=O)C(=O)N[C@H](CO)Cc1ccccc1)C(C)C)C(C)C — MBC (ATCC 8530): 16 µM
CC[C@H](C)[C@H](NC(=O)CNC(=O)[C@H](CCC(=O)O)NC(=O)[C@H](CO)NC(=O)[C@@H](NC(=O)[C@H](CCCNC(=N)N)NC(=O)[C@H](CCCCN)NC(=O)[C@H](CCCCN)NC(=O)[C@H](C)NC(=O)[C@H](CO)NC(=O)[C@H](CC(N)=O)NC(=O)[C@H](CCC(=O)O)NC(=O)[C@H](CC(C)C)NC(=O)[C@H](CCCCN)NC(=O)[C@H](CCCCN)NC(=O)[C@H](C)NC(=O)[C@@H](NC(=O)[C@H](CCCCN)NC(=O)[C@H](CO)NC(=O)[C@H](CC(C)C)NC(=O)[C@H](Cc1c[nH]c2ccccc12)NC(=O)[C@@H](N)CO)[C@@H](C)O)[C@@H](C)CC)C(=O)N[C@@H](C)C(=O)N[C@H](C(=O)N[C@@H](C)C(=O)N[C@H](C(=O)N[C@@H](CCC(N)=O)C(=O)NCC(=O)NCC(=O)N1CCC[C@H]1C(=O)N[C@@H](CCCNC(=N)N)C(=O)O)[C@@H](C)CC)[C@@H](C)CC — MIC range (broth microdilution; methicillin-resistant clinical isolates, Mueller-Hinton broth; 18 h, 35 °C): 16 to 64 µg/mL (≈ 4.79 to 19.2 µM)
COc1cc(NC(C)CCCN)c2nc(C(C)(C)C)ccc2c1Oc1ccc(Cl)c(Cl)c1 (stereo not shown) — IC50 (microbial growth; ATCC33591 MRSA; drug-resistant strain): 5.64 µg/mL (≈ 11.8 µM)
CO/N=C(\C(=O)N[C@@H]1C(=O)N2C(C(=O)O)=C(CSc3nc(=O)c(=O)[nH]n3C)CS[C@H]12)c1csc(N)n1 — FIC index (checkerboard broth microdilution; ATCC 38591 oxacillin-resistant; added: magainin II): 0.25
Myristoyl-ACPIFTKIQGTYRGKAKCK (disulfide 2-18 (inferred)) (N-myristoyl, disulfide; Myristoyl = CCCCCCCCCCCCCC(=O)*) — antibacterial activity (ATCC 8530; MBC, 2 h, pH 7.4, 37 °C, added: E. coli K-235 LPS at peptide:LPS 1:10 w/w): inhibited
CC[C@H](C)[C@H](NC(=O)[C@@H](NC(=O)CN)C(C)C)C(=O)N[C@@H](Cc1ccccc1)C(=O)N[C@@H](CC(N)=O)C(=O)N[C@@H](C)C(=O)N[C@@H](CC(C)C)C(=O)N[C@@H](CCCCN)C(=O)NCC(=O)N[C@H](C(=O)N[C@@H](C)C(=O)N[C@@H](CCCCN)C(=O)N[C@H](C(=O)N[C@H](C(=O)N[C@@H](C)C(=O)N[C@@H](C)C(=O)N[C@@H](CCC(N)=O)C(=O)N[C@@H](CC(C)C)C(=O)N[C@@H](CC(C)C)C(=O)N[C@@H](CCCCN)C(N)=O)C(C)C)[C@@H](C)O)C(C)C — MBEC (persister cells in biofilm; MRSA NCTC 12493; added: vancomycin 4 µg/mL): > 512 µM
eremomycin pyrrolidide — dose for 100% survival (10, female SHK mice, sepsis; intravenous, 30 min after infection, 10 days observation): 2.5 mg/kg
CCCCCCOc1c(OC)cc(NC(C)CCCNC(=O)C(N)CCSC)c2nc(C(C)(C)C)ccc12 (stereo not shown) — IC50 (microbial growth; ATCC33591 MRSA; drug-resistant strain): 4.77 µg/mL (≈ 8.72 µM)
eremomycin — dose for 100% survival (10, female SHK mice, sepsis; intravenous, 30 min after infection, 10 days observation): 4.5 mg/kg
CCCCCCCCOc1c(OC)cc(NC(C)CCCN)c2nc(C(C)(C)C)cc(C)c12 (stereo not shown) — MBC (MRSA ATCC 33591): > 20 µg/mL
CC[C@H]1OC(=O)[C@H](C)[C@@H](O[C@H]2C[C@@](C)(OC)[C@@H](O)[C@H](C)O2)[C@H](C)[C@@H](O[C@@H]2O[C@H](C)C[C@H](N(C)C)[C@H]2O)[C@](C)(OC)C[C@@H](C)C(=O)[C@H](C)[C@@H](O)[C@]1(C)O — FIC index (checkerboard titration; ATCC 38591 oxacillin-resistant; added: ranalexin): 0.25
CCCCCOc1c(OC)cc(NC(C)CCCNC(=O)C(N)C(C)CC)c2nc(C(C)(C)C)ccc12 (stereo not shown) — IC50 (microbial growth; ATCC33591 MRSA; drug-resistant strain): 5.46 µg/mL (≈ 10.6 µM)
CC(C)C[C@H](NC(=O)[C@H](CCCCN)NC(=O)[C@H](CCCNC(=N)N)NC(=O)[C@@H](NC(=O)[C@H](CCCCN)NC(=O)[C@H](CCCCN)NC(=O)[C@@H](NC(=O)[C@H](Cc1ccccc1)NC(=O)[C@H](CCCNC(=N)N)NC(=O)[C@@H](N)CCCNC(=N)N)C(C)C)C(C)C)C(=O)N[C@H](C(=O)N[C@@H](CCCCN)C(=O)O)C(C)C — EC50 (bacterial killing, colony count; ATCC 12600; 1 h, pH 7, 37 °C): 6.6 µg/mL (≈ 4.24 µM)
CCCCCCOc1c(OC)cc(NC(C)CCCNC(=O)C(N)Cc2cnc[nH]2)c2nc(C(C)(C)C)ccc12 (stereo not shown) — MBC (microbial killing; ATCC33591 MRSA; drug-resistant strain): 20 µg/mL
C[C@@H](O)[C@H]1C(=O)N2C(C(=O)O)=C(S[C@@H]3CN[C@H](C(=O)N(C)C)C3)[C@H](C)[C@H]12 — FIC index (checkerboard titration; ATCC 38591 oxacillin-resistant; added: ranalexin): 1.5
CC(C)C[C@H](NC(=O)[C@H](CCCNC(=N)N)NC(=O)[C@H](CCCCN)NC(=O)[C@@H](N)Cc1c[nH]c2ccccc12)C(=O)N[C@@H](CCCNC(=N)N)C(=O)N[C@@H](Cc1c[nH]c2ccccc12)C(=O)N[C@@H](CCCNC(=N)N)C(=O)N[C@@H](CCCNC(=N)N)C(=O)N[C@@H](Cc1ccccc1)C(=O)N[C@@H](Cc1ccccc1)C(=O)O — EC50 (bacterial killing, colony count; ATCC 12600; 1 h, pH 7, 37 °C): 16.5 µg/mL (≈ 10.6 µM)
CC[C@H](C)[C@H](N)C(=O)N[C@@H](CC(C)C)C(=O)N1CCC[C@H]1C(=O)N[C@@H](Cc1c[nH]c2ccccc12)C(=O)N[C@@H](CCCCN)C(=O)N[C@@H](Cc1c[nH]c2ccccc12)C(=O)N1CCC[C@H]1C(=O)N[C@@H](Cc1c[nH]c2ccccc12)C(=O)N[C@@H](Cc1c[nH]c2ccccc12)C(=O)N1CCC[C@H]1C(=O)N[C@@H](Cc1c[nH]c2ccccc12)C(=O)N[C@@H](CCCNC(=N)N)C(=O)N[C@@H](CCCNC(=N)N)C(N)=O — MIC range (broth microdilution; methicillin-resistant clinical isolates, Mueller-Hinton broth; 18 h, 35 °C): 2 to 16 µg/mL (≈ 1.05 to 8.39 µM)
CC[C@H](C)[C@H](NC(=O)[C@@H](NC(=O)CN)C(C)C)C(=O)N[C@@H](Cc1ccccc1)C(=O)N[C@@H](CC(N)=O)C(=O)N[C@@H](C)C(=O)N[C@@H](CC(C)C)C(=O)N[C@@H](CCCCN)C(=O)NCC(=O)N[C@H](C(=O)N[C@@H](C)C(=O)N[C@@H](CCCCN)C(=O)N[C@H](C(=O)N[C@H](C(=O)N[C@@H](C)C(=O)N[C@@H](C)C(=O)N[C@@H](CCC(N)=O)C(=O)N[C@@H](CC(C)C)C(=O)N[C@@H](CC(C)C)C(=O)N[C@@H](CCCCN)C(=O)N[C@@H](CCCCN)C(N)=O)C(C)C)[C@@H](C)O)C(C)C — MBEC (persister cells in biofilm; MRSA NCTC 12493; added: vancomycin 4 µg/mL): 64 µM

A few entries again:
CC[C@H](C)[C@H](NC(=O)[C@@H](NC(=O)CN)C(C)C)C(=O)N[C@@H](Cc1ccccc1)C(=O)N[C@@H](CC(N)=O)C(=O)N[C@@H](C)C(=O)N[C@@H](CC(C)C)C(=O)N[C@@H](CCCCN)C(=O)NCC(=O)N[C@H](C(=O)N[C@@H](C)C(=O)N[C@@H](CCCCN)C(=O)N[C@H](C(=O)N[C@H](C(=O)N[C@@H](C)C(=O)N[C@@H](C)C(=O)N[C@@H](CCC(N)=O)C(=O)N[C@@H](CC(C)C)C(=O)N[C@@H](CC(C)C)C(=O)N[C@@H](CCCCN)C(N)=O)C(C)C)[C@@H](C)O)C(C)C — MBEC (persister cells in biofilm; MRSA NCTC 12493; added: vancomycin 4 µg/mL): > 512 µM
Myristoyl-ACPIFTKIQGTYRGKAKCK (disulfide 2-18 (inferred)) (N-myristoyl, disulfide; Myristoyl = CCCCCCCCCCCCCC(=O)*) — antibacterial activity (ATCC 8530; MBC, 2 h, pH 7.4, 37 °C, added: E. coli K-235 LPS at peptide:LPS 1:10 w/w): inhibited
eremomycin pyrrolidide — dose for 100% survival (10, female SHK mice, sepsis; intravenous, 30 min after infection, 10 days observation): 2.5 mg/kg
